Experimental data collected from several papers.
Each line is one published result; not all experiments were run side by side. “And” joins repeats or separate records; there may be more than shown. ± marks the error that the study gave.
B1: CDC5L; sequence looked up; chain MPRIMIKGGVWRNTEDEILKAAVMKYGKNQWSRIASLLHRKSAKQCKARWYEWLDPSIKKTEWSREEEEKLLHLAKLMPTQWRTIAPIIGRTAAQCLEHYEFLLDKAAQRDNEEETTDDPRKLKPGEIDPNPETKPARPDPIDMDEDELEMLSEARARLANTQGKKAKRKAREKQLEEARRLAALQKRRELRAAGIEIQKKRKRKRGVDYNAEIPFEKKPALGFYDTSEENYQALDADFRKLRQQDLDGELRSEKEGRDRKKDKQHLKRKKESDLPSAILQTSGVSEFTKKRSKLVLPAPQISDAELQEVVKVGQASEIARQTAEESGITNSASSTLLSEYNVTNNSVALRTPRTPASQDRILQEAQNLMALTNVDTPLKGGLNTPLHESDFSGVTPQRQVVQTPNTVLSTPFRTPSNGAEGLTPRSGTTPKPVINSTPGRTPLRDKLNINPEDGMADYSDPSYVKQMERESREHLRLGLLGLPAPKNDFEIVLPENAEKELEEREIDDTYIEDAADVDARKQAIRDAERVKEMKRMHKAVQKDLPRPSEVNETILRPLNVEPPLTDLQKSEELIKKEMITMLHYDLLHHPYEPSGNKKGKTVGFGTNNSEHITYLEHNPYEKFSKEELKKAQDVLVQEMEVVKQGMSHGELSSEAYNQVWEECYSQVLYLPGQSRYTRANLASKKDRIESLEKRLEINRGHMTTEAKRAAKMEKKMKILLGGYQSRAMGLMKQLNDLWDQIEQAHLELRTFEELKKHEDSAIPRRLECLKEDVQRQQEREKELQHRYADLLLEKETLKSKF
B2: CSE1L; sequence looked up; chain MELSDANLQTLTEYLKKTLDPDPAIRRPAEKFLESVEGNQNYPLLLLTLLEKSQDNVIKVCASVTFKNYIKRNWRIVEDEPNKICEADRVAIKANIVHLMLSSPEQIQKQLSDAISIIGREDFPQKWPDLLTEMVNRFQSGDFHVINGVLRTAHSLFKRYRHEFKSNELWTEIKLVLDAFALPLTNLFKATIELCSTHANDASALRILFSSLILISKLFYSLNFQDLPEFFEDNMETWMNNFHTLLTLDNKLLQTDDEEEAGLLELLKSQICDNAALYAQKYDEEFQRYLPRFVTAIWNLLVTTGQEVKYDLLVSNAIQFLASVCERPHYKNLFEDQNTLTSICEKVIVPNMEFRAADEEAFEDNSEEYIRRDLEGSDIDTRRRAACDLVRGLCKFFEGPVTGIFSGYVNSMLQEYAKNPSVNWKHKDAAIYLVTSLASKAQTQKHGITQANELVNLTEFFVNHILPDLKSANVNEFPVLKADGIKYIMIFRNQVPKEHLLVSIPLLINHLQAESIVVHTYAAHALERLFTMRGPNNATLFTAAEIAPFVEILLTNLFKALTLPGSSENEYIMKAIMRSFSLLQEAIIPYIPTLITQLTQKLLAVSKNPSKPHFNHYMFEAICLSIRITCKANPAAVVNFEEALFLVFTEILQNDVQEFIPYVFQVMSLLLETHKNDIPSSYMALFPHLLQPVLWERTGNIPALVRLLQAFLERGSNTIASAAADKIPGLLGVFQKLIASKANDHQGFYLLNSIIEHMPPESVDQYRKQIFILLFQRLQNSKTTKFIKSFLVFINLYCIKYGALALQEIFDGIQPKMFGMVLEKIIIPEIQKVSGNVEKKICAVGITKLLTECPPMMDTEYTKLWTPLLQSLIGLFELPEDDTIPDEEHFIDIEDTPGYQTAFSQLAFAGKKEHDPVGQMVNNPKIHLAQSLHKLSTACPGRVPSMVSTSLNAEALQYLQGYLQAASVTLL
B3: DDX46; sequence looked up; chain GRESRHYRKRSASRGRSGSRSRSRSPSDKRSKRGDDRRSRSRDRDRRRERSRSRDKRRSRSRDRKRLRRSRSRERDRSRERRRSRSRDRRRSRSRSRGRRSRSSSPGNKSKKTENRSRSKEKTDGGESSKEKKKDKDDKEDEKEKDAGNFDQNKLEEEMRKRKERVEKWREEQRKKAMENIGELKKEIEEMKQGKKWSLEDDDDDEDDPAEAEKEGNEMEGEELDPLDAYMEEVKEEVKKFNMRSVKGGGGNEKKSGPTVTKVVTVVTTKKAVVDSDKKKGELMENDQDAMEYSSEEEEVDLQTALTGYQTKQRKLLEPVDHGKIEYEPFRKNFYVEVPELAKMSQEEVNVFRLEMEGITVKGKGCPKPIKSWVQCGISMKILNSLKKHGYEKPTPIQTQAIPAIMSGRDLIGIAKTGSGKTIAFLLPMFRHIMDQRSLEEGEGPIAVIMTPTRELALQITKECKKFSKTLGLRVVCVYGGTGISEQIAELKRGAEIIVCTPGRMIDMLAANSGRVTNLRRVTYVVLDEADRMFDMGFEPQVMRIVDNVRPDRQTVMFSATFPRAMEALARRILSKPIEVQVGGRSVVCSDVEQQVIVIEEEKKFLKLLELLGHYQESGSVIIFVDKQEHADGLLKDLMRASYPCMSLHGGIDQYDRDSIINDFKNGTCKLLVATSVAARGLDVKHLILVVNYSCPNHYEDYVHRAGRTGRAGNKGYAYTFITEDQARYAGDIIKALELSGTAVPPDLEKLWSDFKDQQKAEGKIIKKSSGFSGKGFKFDETEQALANERKKLQKAALGLQDSDDEDAAVDIDEQIESMFNSKKRVKDMAAPGTSSVPAPTAGNAEKLEIAKRLALRINAQKNLGIESQDVMQQATNAILRGGTILAPTVSAKTIAEQLAEKINAKLNYVPLEKQEEERQDGGQNESFKRYEEELEINDFPQTARWKVTSKEALQRISEYSEAAITIRGTYFPPGKEPKEGERKIYLAIESANELAVQKAKAEITRLIKEELIRLQNSYQPTNKGRYKVL
B4: DDX1; sequence looked up; chain MAAFSEMGVMPEIAQAVEEMDWLLPTDIQAESIPLILGGGDVLMAAETGSGKTGAFSIPVIQIVYETLKDQQEGKKGKTTIKTGASVLNKWQMNPYDRGSAFAIGSDGLCCQSREVKEWHGCRATKGLMKGKHYYEVSCHDQGLCRVGWSTMQASLDLGTDKFGFGFGGTGKKSHNKQFDNYGEEFTMHDTIGCYLDIDKGHVKFSKNGKDLGLAFEIPPHMKNQALFPACVLKNAELKFNFGEEEFKFPPKDGFVALSKAPDGYIVKSQHSGNAQVTQTKFLPNAPKALIVEPSRELAEQTLNNIKQFKKYIDNPKLRELLIIGGVAARDQLSVLENGVDIVVGTPGRLDDLVSTGKLNLSQVRFLVLDEADGLLSQGYSDFINRMHNQIPQVTSDGKRLQVIVCSATLHSFDVKKLSEKIMHFPTWVDLKGEDSVPDTVHHVVVPVNPKTDRLWERLGKSHIRTDDVHAKDNTRPGANSPEMWSEAIKILKGEYAVRAIKEHKMDQAIIFCRTKIDCDNLEQYFIQQGGGPDKKGHQFSCVCLHGDRKPHERKQNLERFKKGDVRFLICTDVAARGIDIHGVPYVINVTLPDEKQNYVHRIGRVGRAERMGLAISLVATEKEKVWYHVCSSRGKGCYNTRLKEDGGCTIWYNEMQLLSEIEEHLNCTISQVEPDIKVPVDEFDGKVTYGQKRAAGGGSYKGHVDILAPTVQELAALEKEAQTSFLHLGYLPNQLFRTF

Under “log2 fold change”, `B1 (CDC5L)` is recorded as -1.99 (peptide binding, SILAC pull-down; concentration not given; reference: non-acetylated over acetylated NIT1 peptide).
`QTNPYPTGP` has an IC50 of over 20 µM (Mamu-B*08301 MHC class I; peptide binding; peptide, Chinese rhesus macaque).
`KISEYRHYV` gave a specific lysis of 0.2% and 0.5% (ASPC1 (HLA-A2− HPV−); 111In release; peptide; concentration not given, 16 h, E:T 25:1, IVS 5, together with: peptide-generated T-cell line).
With `oseltamivir carboxylate` the EC50 was 2.9 µM (Influenza B virus; cytopathic effect, visual CPE score; MDCK).
With `GWTLNSAGYLLGPRRIDHLLMIKEMPIARGREEAPGA / YAVDNHRSFNDKHGFT-NH2 (C-amide)` the mRNA level was 0.775 and 0.784 and 0.87 and 0.415 and 0.268 (RT-qPCR, refers to: Ccl3; mouse, DSS-induced colitis, colon; ip, 3 µM, 3% DSS, unit not given; reference: Gapdh).
Under “log2 fold change”, `B2 (CSE1L)` is recorded as 2.67 (peptide binding, SILAC pull-down; concentration not given; reference: non-acetylated over acetylated NIT1 peptide).
`VYGIYCTLY` gave an IC50 of over 20 µM (Mamu-B*08301 MHC class I; peptide binding; peptide, Chinese rhesus macaque).
`KISEYRHYC` gave a specific lysis of 7% (HN-4 (HLA-A2+ HPV+); 111In release; peptide; concentration not given, 16 h, E:T 25:1 IVS 5, together with: peptide-generated T-cell line).
For `ASGVQVADEVCR (destrin)`, “log2 fold change” read -0.274 (peptide binding, SILAC pull-down; concentration not given; reference: non-acetylated over acetylated NIT1 peptide).
The IC50 of `buprenorphine` is reported as 35 µM (HeLa; cytotoxicity).
Under “log2 fold change”, `B3 (DDX46)` is recorded as 0.115 (peptide binding, SILAC pull-down; concentration not given; reference: non-acetylated over acetylated NIT1 peptide).
The fold change of `insulin human` is reported as 1.13 (refers to: PTGS2 mRNA; uninfected mouse, brain; i.p., dose not given; reference: PBS).
With `(−)-antroquinonol A` the IC50 was over 25 µM (HepG2; cytotoxicity, MTS; 72 h).
`hexaarginine` has a koff of 3330 ± 340 s⁻¹ (PorA peptide pore; peptide binding, planar bilayer single-channel recording; 0.5 µM, pH 7.4, +20 mV, trans side, 150 mM KCl).
The inhibition of `aspterric acid` is reported as 69.5% (hypocotyl length; Arabidopsis thaliana Col-0 seeds; 6.25 µg/mL).
Under “log2 fold change”, `CTPS1` is recorded as 0.184 (peptide binding, SILAC pull-down; concentration not given; reference: non-acetylated over acetylated NIT1 peptide).
For `nonaarginine`, the koff was 1430 ± 150 s⁻¹ (PorA peptide pore; peptide binding, planar bilayer single-channel recording; 0.5 µM, pH 7.4, +30 mV, trans side, 150 mM KCl).
Under “log2 fold change”, `CCT3` is recorded as 1.86 (peptide binding, SILAC pull-down; concentration not given; reference: non-acetylated over acetylated NIT1 peptide).
Under “concentration causing morphological change”, `mastoparan` is recorded as 10 to 20 µM (Swiss 3T3 quiescent).
`oseltamivir carboxylate` has an EC50 of 6.5 µM (Influenza B virus; viral replication, MTS; MDCK).
With `pertussis toxin` the GFAP-positive area was 1.71% and 2.01% and 2.45% (astrogliosis, immunostaining; humanized UT (+/h+) mice, SAH model, meninges; dose not given; reference: total area).
The MIC of `Polymyxin B` is reported as 0.5 µg/mL (Pseudomonas aeruginosa; broth microdilution; P2 clinical isolate; 20 h).
`colistin` — result for “CFU relative to caspofungin alone”: 1.23 and 0.904 and 0.369 (Aspergillus fumigatus; conidia; 80 µM, together with: caspofungin 0.2 µg/mL; reference: caspofungin alone).
The specific lysis of `YMLDLQPET` is reported as 0.4% (ASPC1 (HLA-A2− HPV−); 111In release; peptide; concentration not given, 16 h, E:T 25:1, IVS 5, together with: peptide-generated T-cell line).
`B4 (DDX1)`: “log2 fold change” 0.584 (peptide binding, SILAC pull-down; concentration not given; reference: non-acetylated over acetylated NIT1 peptide).
`GWTLNSAGYLLGPHAVDNHRSFNDKHGFT-NH2 (C-amide)` gave a colon length of 5.9 cm and 6.1 cm (peptide, mouse, DSS-induced colitis; ip, 1.5 µM).
Under “log2 fold change”, `DDDIAALVVDNGSGMCK (beta-actin)` is recorded as 0.183 (peptide binding, SILAC pull-down; concentration not given; reference: non-acetylated over acetylated NIT1 peptide).
The IC50 of `KEVDSSSHM` is reported as over 20 µM (Mamu-B*08301 MHC class I; peptide binding; peptide, Chinese rhesus macaque).

Some of these lines once more:
With `(−)-antroquinonol A` the IC50 was over 25 µM (HepG2; cytotoxicity, MTS; 72 h).
`hexaarginine` has a koff of 3330 ± 340 s⁻¹ (PorA peptide pore; peptide binding, planar bilayer single-channel recording; 0.5 µM, pH 7.4, +20 mV, trans side, 150 mM KCl).
